Published values pooled from the literature.
A part holds a random share of what one study measured. Values joined by “and” are separate records of one study, mostly repeats; a detail may differ.

Set 1
Structure (SMILES): Cc1nc(C)c(C=[N+]([O-])C(C)(C)C)nc1C
Technique: Western blot
Species: MPTP mouse model
Setting: unit not given
Baseline: β-actin
test system | conditions | HO-1 protein level
substantia nigra cytosol | 90 mg/kg | 89.5 and 115 and 98.5 and 108
substantia nigra cytosol | 30 mg/kg | 71.5 and 96.9 and 134 and 71.3
substantia nigra nuclei | 90 mg/kg | 75.5 and 75.3 and 93.5
substantia nigra nuclei | 10 mg/kg | 75.2 and 106 and 82.9

Set 2
Organism: Arabidopsis thaliana
Strain: Col-0
Tested at: 100 µg/mL
Setting: seed germination
SMILES | root length
O=C(O)C1Oc2cc(F)ccc2N(Cc2ccccc2)C1=O (stereo not shown) | 0.74 cm
O=C(O)C1(O)Oc2ccccc2N(Cc2ccccc2)C1=O (stereo not shown) | 0.736 cm
CCN1C(=O)C(O)(C(=O)O)Oc2cc(F)ccc21 (stereo not shown) | 0.328 cm
CC(C)=CCN1C(=O)C(O)(C(=O)O)Oc2cc(F)ccc21 (stereo not shown) | 0.77 cm
O=C(O)C1(O)Oc2cc(Br)ccc2N(Cc2ccccc2)C1=O (stereo not shown) | 0.135 cm
Cc1ccc2c(c1)OC(O)(C(=O)O)C(=O)N2Cc1ccccc1 (stereo not shown) | 0.752 cm
CN1C(=O)C(O)(C(=O)O)Oc2cc(F)ccc21 (stereo not shown) | 0.438 cm
O=C(O)C1(O)Oc2cc(F)ccc2N(Cc2ccccc2)C1=O (stereo not shown) | 0.01 cm
CC(C)(C)c1ccc(Oc2ccc3c(c2)OC(O)(C(=O)O)C(=O)N3Cc2ccccc2)cc1 (stereo not shown) | 0.122 cm
COc1ccc2c(c1)OC(O)(C(=O)O)C(=O)N2Cc1ccccc1 (stereo not shown) | 0.248 cm
O=C(O)C1(O)Oc2cc(Cl)ccc2N(Cc2ccccc2)C1=O (stereo not shown) | 0.067 cm
CCCN1C(=O)C(O)(C(=O)O)Oc2cc(F)ccc21 (stereo not shown) | 0.129 cm

Set 3
Compound: CCN1/C(=C/C=C2\CCCC(/C=C/C3=[N+](CC)c4ccccc4C3(C)C)=C2NCCCCCCCCN2CCC(Nc3nc4ccccc4n3Cc3ccc(F)cc3)CC2)C(C)(C)c2ccccc21
Cell line: U-87 MG
Tested at: concentration not given
Baseline: DMSO
assay | log2 fold change
refers to: SMIM10 mRNA | -2.09
refers to: RPAIN mRNA | 0.819
refers to: BTN3A2 mRNA | -1.27
refers to: FAM186B mRNA | 2.26
refers to: TUBA1A mRNA | -1.91
refers to: AP1AR mRNA | 1.03
refers to: CDK15 mRNA | -2.62
refers to: C9orf50 mRNA | 2.76
refers to: LMO7 mRNA | -1.63
refers to: ARHGAP33 mRNA | -1.82
refers to: RCC2 mRNA | -0.803
refers to: C9orf72 mRNA | 1.99
refers to: TSPAN15 mRNA | -2.5
refers to: ITGB8 mRNA | -2.35
refers to: IL7R mRNA | -2.66
refers to: KIF24 mRNA | -1.79

Set 4
Compound: C[C@@H]1CN(c2ccc(-c3cc(C(=O)NCCOCCOCCOCCOCCNC(=O)/C=C/c4[nH]cc(C(=O)N[C@@H](CC(N)=O)c5ccc(F)c(Cl)c5)c4-c4ccc(Cl)cc4F)ccc3F)cc2NC(=O)c2c[nH]c(=O)cc2C(F)(F)F)C[C@H](C)N1C
Read-out: thermal unfolding
Technique: differential scanning fluorimetry
Tested at: 5.5 µM
Direction: higher = more unfolded
DCAF1: DDB1- and CUL4-associated factor 1 (DCAF1, Homo sapiens, UniProt Q9Y4B6)
Chain of UniProt Q9Y4B6 (whole entry, looked up): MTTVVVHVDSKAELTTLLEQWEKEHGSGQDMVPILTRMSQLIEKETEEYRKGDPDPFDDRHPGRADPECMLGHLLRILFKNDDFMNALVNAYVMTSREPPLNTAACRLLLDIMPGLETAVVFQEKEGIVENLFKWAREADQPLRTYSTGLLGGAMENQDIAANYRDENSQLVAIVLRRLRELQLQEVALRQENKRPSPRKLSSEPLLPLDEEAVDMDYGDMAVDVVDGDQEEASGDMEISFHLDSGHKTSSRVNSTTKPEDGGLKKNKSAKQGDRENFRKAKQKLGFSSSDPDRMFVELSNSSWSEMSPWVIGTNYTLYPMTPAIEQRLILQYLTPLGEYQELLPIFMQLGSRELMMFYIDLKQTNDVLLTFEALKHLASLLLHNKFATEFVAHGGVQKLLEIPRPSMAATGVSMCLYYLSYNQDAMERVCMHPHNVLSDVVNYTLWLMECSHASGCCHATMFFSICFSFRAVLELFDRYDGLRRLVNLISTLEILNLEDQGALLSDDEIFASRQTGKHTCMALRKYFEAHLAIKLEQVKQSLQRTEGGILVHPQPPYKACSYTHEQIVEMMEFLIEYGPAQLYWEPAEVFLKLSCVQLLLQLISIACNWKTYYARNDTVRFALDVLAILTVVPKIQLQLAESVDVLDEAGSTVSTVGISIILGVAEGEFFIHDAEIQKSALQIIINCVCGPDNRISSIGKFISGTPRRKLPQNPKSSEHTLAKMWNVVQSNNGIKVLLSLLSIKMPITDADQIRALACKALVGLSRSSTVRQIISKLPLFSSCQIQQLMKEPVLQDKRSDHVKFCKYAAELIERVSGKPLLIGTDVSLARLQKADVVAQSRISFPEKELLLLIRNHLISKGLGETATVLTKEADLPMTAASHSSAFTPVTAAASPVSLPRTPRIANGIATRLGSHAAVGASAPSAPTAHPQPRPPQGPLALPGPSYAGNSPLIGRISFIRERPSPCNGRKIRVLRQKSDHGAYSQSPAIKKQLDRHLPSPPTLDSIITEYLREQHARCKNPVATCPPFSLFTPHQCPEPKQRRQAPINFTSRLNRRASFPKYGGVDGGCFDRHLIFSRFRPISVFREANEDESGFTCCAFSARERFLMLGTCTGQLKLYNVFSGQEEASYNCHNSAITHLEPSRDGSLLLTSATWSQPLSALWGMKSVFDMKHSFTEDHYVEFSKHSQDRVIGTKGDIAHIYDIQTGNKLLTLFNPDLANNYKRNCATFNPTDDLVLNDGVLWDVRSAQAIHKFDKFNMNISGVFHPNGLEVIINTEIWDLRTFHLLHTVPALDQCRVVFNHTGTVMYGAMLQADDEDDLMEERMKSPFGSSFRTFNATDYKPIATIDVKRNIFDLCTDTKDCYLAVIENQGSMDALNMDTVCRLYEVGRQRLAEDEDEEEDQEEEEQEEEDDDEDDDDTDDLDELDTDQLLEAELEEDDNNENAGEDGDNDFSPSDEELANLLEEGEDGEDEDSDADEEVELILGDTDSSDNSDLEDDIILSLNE
WDR5: WD repeat-containing protein 5 (WDR5, Homo sapiens, UniProt P61964)
target | conditions | SYPRO Orange fluorescence
DCAF1 | 51.4 °C | 16400 a.u.
WDR5 | 34.8 °C | 13200 a.u.
WDR5 | 73.01 °C | 21200 a.u.
WDR5 | 86.41 °C | 53600 a.u.
WDR5 | 65.41 °C | 14000 a.u.
DCAF1 | 92.41 °C | 32300 a.u.
DCAF1 | 76.81 °C | 48100 a.u.
WDR5 | 44 °C | 15100 a.u.
WDR5 | 92.21 °C | 48300 a.u.
WDR5 | 64.21 °C | 14000 a.u.
DCAF1 | 76.41 °C | 48500 a.u.

Excerpt of the above (set 4):
target | conditions | SYPRO Orange fluorescence
DCAF1 | 76.81 °C | 48100 a.u.
DCAF1 | 76.41 °C | 48500 a.u.
WDR5 | 44 °C | 15100 a.u.
WDR5 | 34.8 °C | 13200 a.u.
